Results gathered from unrelated publications.
Each line is one published result; not all experiments were run side by side. Numbers after ± are the reported error.
YWHAG/RELA phospho-Ser45 p65 peptide: YWHAG/RELA, phospho-Ser45 p65 peptide (Homo sapiens, UniProt P61981+Q04206)
Nuclear receptor subfamily 2 group C member 2 ligand-binding domain: Nuclear receptor subfamily 2 group C member 2, ligand-binding domain (Homo sapiens, UniProt P49116)

The EC50 of COC1CN(c2cc(C=O)ccc2[N+](=O)[O-])C1 is reported as > 1000 µM (YWHAG/RELA phospho-Ser45 p65 peptide; ternary complex formation, stabilizer, fluorescence anisotropy).
OC[C@H]1OC(O)[C@H](O)[C@@H](O)[C@@H]1O (some centres unmarked) has a Ki of 2900 ± 100 µM (Hexokinase-3 (HK3, Homo sapiens, UniProt P52790, E254A/R267A); substrate inhibition; mutant E254A/R267A, partial substrate inhibition model, with: ATP 20 mM).
CCCCC[C@H](O)/C=C/[C@H]1[C@H](O)CC(=O)[C@@H]1C/C=C\CCCC(=O)O gave an EC50 of 0.0014 µM (PTGER1 (Homo sapiens, UniProt P34995, R66A); IP1 accumulation, agonist; AD293; EP1 R66A mutant).
C=C1/C(=C\C=C2/CCC[C@]3(C)[C@@H]([C@H](C)/C=C/[C@H](C)C(C)C)CC[C@@H]23)C[C@@H](O)C[C@@H]1O gave a Kd of 0.0781 nM (Nuclear receptor subfamily 2 group C member 2 ligand-binding domain; SPR imaging).
The Ki of O=c1n(CCCN2CCN(c3cccc(Cl)c3)CC2)nc2ccccn12 is reported as > 10 µM (TACR2 (Homo sapiens, UniProt P21452)).
CC[C@@H]1[C@H](F)C(=O)N[C@@H]1COc1nccc2cc(C(N)=O)c(OC)cc12 gave an IC50 of > 5 µM (PRKAA1 (Homo sapiens, UniProt Q13131); ATP-site binding, ActivX kinase profiling; THP-1 cell lysate; AMPKa1 ATP-loop probe peptide).
With CS(=O)(=O)c1ccc(C=O)cc1 the EC50 was > 1000 µM (YWHAG/RELA phospho-Ser45 p65 peptide; ternary complex formation, stabilizer, fluorescence anisotropy).
CC(=O)Nc1ccc(C(=O)Nc2ccccc2N)cc1 has a viability of 5.72% (OCI-Ly1; 0.1 µM, 120 h).
With [H]/N=C(/N)NS(=O)(=O)c1ccc(N)cc1 the Kd was 1.71 nM (Nuclear receptor subfamily 2 group C member 2 ligand-binding domain; SPR imaging).
CN1CC2c3ccccc3Oc3ccc(Cl)cc3C2C1 (centres unmarked) has an EC50 of 0.0516 µM (HTR1A (Homo sapiens, UniProt P08908, K405A); agonist).
COC(=O)CCc1ccc(OCC(O)CNC(C)C)cc1 (centres unmarked) has a Kd of 0.0442 nM (Nuclear receptor subfamily 2 group C member 2 ligand-binding domain; SPR imaging).
CC(=O)Nc1ccc(C=O)cc1 has an EC50 of > 1000 µM (YWHAG/RELA phospho-Ser45 p65 peptide; ternary complex formation, stabilizer, fluorescence anisotropy).
For CN1CCN(C2=Nc3ccccc3Oc3ccc(Cl)cc32)CC1, the Kd was 6.87 nM (Nuclear receptor subfamily 2 group C member 2 ligand-binding domain; SPR imaging).
Cc1cc(Oc2ncccc2CN2CCN(c3ccccc3O)CC2)ccc1-c1c(C)c(=O)[nH]c(=O)n1C gave a Ki of 0.0571 µM (ADRA2A (Homo sapiens, UniProt P08913); inhibitor, radioligand binding; with: [3H]rauwolscine).
The EC50 of O=Cc1ccc([N+](=O)[O-])c(OC(=O)c2cccc(F)c2F)c1 is reported as > 1000 µM (YWHAG/RELA phospho-Ser45 p65 peptide; ternary complex formation, stabilizer, fluorescence anisotropy).
For C#C[C@]1(O)CC[C@H]2[C@@H]3CCc4cc(O)ccc4[C@H]3CC[C@@]21C, the Kd was 0.0153 nM (Nuclear receptor subfamily 2 group C member 2 ligand-binding domain; SPR imaging).
Nc1cc(F)ccc1NC(=O)/C=C/c1cnn(C/C=C/c2ccccc2)c1 gave a viability of 113% (OCI-Ly1; 1 µM, 120 h).
O=C(O)[C@@H]1C[C@H](CP(=O)(O)O)CCN1 gave a Ki of 0.16 µM (NMDA receptor (rat); radioligand binding, antagonist).
O=Cc1ccc(C(=O)NCC2CCOCC2)cc1 has an EC50 of > 1000 µM (YWHAG/RELA phospho-Ser45 p65 peptide; ternary complex formation, stabilizer, fluorescence anisotropy).
CC(=O)N[C@@H](CC(C)C)C(=O)N[C@@H](CC(C)C)C(=O)N[C@@H](CC(C)C)C(=O)N[C@@H](CCCNC(=N)N)C(=O)N[C@H](C(=O)N[C@@H](CCCCN)C(=O)N[C@@H](CCCNC(=N)N)C(N)=O)C(C)C has a Ki of 0.12 ± 0.04 µM (proprotein convertase 1/3 (human); inhibitor).
For O=Cc1ccc([N+](=O)[O-])c(OC(=O)c2ccc(Cl)cc2)c1, the EC50 was > 1000 µM (YWHAG/RELA phospho-Ser45 p65 peptide; ternary complex formation, stabilizer, fluorescence anisotropy).
For NC(=O)c1cccnc1, the Kd was 0.0546 nM (Nuclear receptor subfamily 2 group C member 2 ligand-binding domain; SPR imaging).
O=Cc1ccc([N+](=O)[O-])c(OC(=O)c2cccc(Cl)c2)c1 gave an EC50 of > 1000 µM (YWHAG/RELA phospho-Ser45 p65 peptide; ternary complex formation, stabilizer, fluorescence anisotropy).
For Cc1ncsc1-c1ccc([C@H](CC(=O)N2CCN(c3ccc(C#Cc4ccc(C(=O)N5CCC(n6cc(-c7ccc8c(c7)CCN8C(=O)Cc7cccc(OC(F)(F)F)c7)c7c(N)ncnc76)CC5)cc4)cn3)CC2)NC(=O)[C@@H]2C[C@@H](O)CN2C(=O)[C@@H](NC(=O)C2(F)CC2)C(C)(C)C)cc1, the DC50 was 0.0028 µM (RIPK1 (Homo sapiens, UniProt Q13546); degrader, Western blot; MOLM-14).
N#Cc1ccc(-c2cc(NCCCN3CCCCC3)c3ccccc3n2)cc1 has an IC50 of 0.92 µM (Low molecular weight phosphotyrosine protein phosphatase, isoform A (Mus musculus, UniProt Q9D358); enzyme activity, inhibitor; with: OMFP substrate).
For COC(=O)[C@H]1[C@H]2C[C@@H]3c4[nH]c5cc(OC)ccc5c4CCN3C[C@H]2C[C@@H](OC(=O)c2cc(OC)c(OC)c(OC)c2)[C@@H]1OC, the Kd was 8.99 nM (Nuclear receptor subfamily 2 group C member 2 ligand-binding domain; SPR imaging).
The Ki of Nc1ncnc2c1ncn2[C@@H]1O[C@H](CSCC[C@H](N)C(=O)O)[C@@H](O)[C@H]1O is reported as 15.4 ± 5.2 µM (PNMT (Homo sapiens, UniProt P11086); inhibitor, coupled enzyme).
The EC50 of Cc1ccc(C(=O)Oc2cc(C=O)ccc2[N+](=O)[O-])cc1F is reported as > 1000 µM (YWHAG/RELA phospho-Ser45 p65 peptide; ternary complex formation, stabilizer, fluorescence anisotropy).
Cc1cccc(Nc2ccccc2C(=O)O)c1C gave a Kd of 0.0181 nM (Nuclear receptor subfamily 2 group C member 2 ligand-binding domain; SPR imaging).

Excerpt of the above:
Cc1cc(Oc2ncccc2CN2CCN(c3ccccc3O)CC2)ccc1-c1c(C)c(=O)[nH]c(=O)n1C gave a Ki of 0.0571 µM (ADRA2A (Homo sapiens, UniProt P08913); inhibitor, radioligand binding; with: [3H]rauwolscine).
For C#C[C@]1(O)CC[C@H]2[C@@H]3CCc4cc(O)ccc4[C@H]3CC[C@@]21C, the Kd was 0.0153 nM (Nuclear receptor subfamily 2 group C member 2 ligand-binding domain; SPR imaging).
